# Assay results collected from several papers.
# Protocols differ between the studies behind these lines. ± marks the error that the study gave.
# T1: RNA aptamer A8G; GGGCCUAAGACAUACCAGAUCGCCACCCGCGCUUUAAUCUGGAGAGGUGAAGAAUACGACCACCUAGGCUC
SMILES,target or system,test,test system,setting,how to read,endpoint,value
CC(=O)NCCN(CC(=O)NCCN(CC(=O)NCCN(CC(=O)NCCC(N)=O)C(=O)C[C@@H](N)Cc1ccccc1)C(=O)C[C@@H](N)CCCNC(=N)N)C(=O)C[C@@H](N)Cc1ccccc1,HIV-1 TAR RNA,,,extrapolated to 1 M KCl,,non-electrostatic ΔG°,-8.174 ± 0.0717 kcal/mol
[64Cu+2].c1cnc(CNCc2ccc(CN3CCCN4CCNCCCN(CC4)CC3)cc2)nc1,"C-X-C chemokine receptor type 4 (CXCR4, Homo sapiens, UniProt P61073)",,"NOD/SCID mice, U87 xenografts, U87-stb-CXCR4 tumour",240 min post-injection,,tissue uptake,23.1 ± 1.34 %ID/g
CNc1ccccc1C(=O)O[C@H]1C[C@H](n2cnc3c(N)ncnc32)O[C@@H]1COP(=O)(O)OP(=O)(O)O,"Unconventional myosin-Va (Gallus gallus, UniProt Q02440, D297C/G292C/I296C/S293C/V295G)",stopped-flow FRET,,"10 °C, with: EDTA 4 mM",,association rate constant,4.15e+06 ± 270000 M⁻¹ s⁻¹
CN1C(=O)/C(=C/c2cc(Cl)cc(Br)c2O)SC1=S,"ADP-ribosyl cyclase/cyclic ADP-ribose hydrolase 1 (CD38, Homo sapiens, UniProt P28907)","hydrolase activity, fluorometric",,"50 µM, with: ε-NAD+ substrate",baseline: untreated,remaining activity,103 ± 2.2%
CC(=O)NCCN(CC(=O)NCCN(CC(=O)NCCN(CC(=O)NCCC(N)=O)C(=O)[C@@H](N)CCCNC(=N)N)C(=O)[C@@H](N)CCCCN)C(=O)[C@@H](N)Cc1ccccc1,HIV-1 TAR RNA,,,,,non-electrostatic TΔS°,-9.7 ± 0.526 kcal/mol
NC(=O)C1CCNC(=O)C(CCCNC(=O)c2cnccn2)NC(=O)C(CC2CCCCC2)NC(=O)C(CC2CC2)NC(=O)C=CC(=O)N1 (stereo not drawn),"RAC-gamma serine/threonine-protein kinase (AKT3, Homo sapiens, UniProt Q9Y243)",DNA-templated library selection,,one selection round,,enrichment factor,1.5
Cc1cc(O)cc2c1C(=O)c1c(cc3oc(=O)cc(C)c3c1O)C2=O,mushroom tyrosinase,enzyme activity,,"50 µg/mL, with: L-DOPA",,inhibition,48.19 ± 0.28%
FC(F)(F)c1csc(Nc2ccc(Cl)c(Cl)c2)n1,"Kinesin-like protein KIF15 (Homo sapiens, UniProt Q9NS87)",microtubule-dependent ATPase activity,,"30 µM, with: ATP 2 mM, microtubules",,kcat,14.2 ± 9 s^–1
CC(=O)N[C@H](C(=O)N[C@H](C(=O)N[C@@H](CCCNC(=N)N)C(=O)N1Cc2ccccc2C[C@H]1C(=O)N[C@@H](Cc1ccccc1)C(N)=O)C1CCCCC1)C(C)C,human PBMC,"Bio-Plex multiplex, measured: IFN-g",,"250 µg/mL, 24 h",,cytokine level,28 ± 18.4 pg/mL
COC(=O)c1cnc(-c2cnccn2)cc1C(=O)OC.COC(=O)c1cnc(-c2cnccn2)cc1C(=O)OC.[Cl-].[Cl-].[Cl-].[Cl-].[Cu+2].[Cu+2],calf thymus DNA,ethidium bromide displacement,,,,binding constant,367 M⁻¹
CC(Oc1cc(-c2ccccc2)nc2ccncc12)C(=O)N(C)c1ccccc1 (stereo not drawn),human leukocytes,binding,,,baseline: LAB over HAB genotype,Ki ratio,19 ± 9
CN(C)c1ccc2c(-c3ccc(C(=O)NCCCn4cc(COc5cc(C(=O)c6cc(Cl)ccc6NS(=O)(=O)c6ccc(C(C)(C)C)cc6)cc[n+]5[O-])nn4)cc3C(=O)[O-])c3ccc(=[N+](C)C)cc-3oc2c1,"C-C chemokine receptor type 9 (CCR9, Homo sapiens, UniProt P51686)","binding, BRET",,cell membranes,,residence time,90 min
COc1ccc(CNC(=O)c2sc3nc(C)cc(C)c3c2N)cc1,"Muscarinic acetylcholine receptor M4 (Rattus norvegicus, UniProt P08485)","calcium mobilization, positive allosteric modulator",,with: acetylcholine,,log β,0.67
CC(Oc1nc(-c2ccccc2)nc2ccccc12)C(=O)N(C)c1ccccc1 (stereo not drawn),human leukocytes,binding,,,baseline: LAB over HAB genotype,Ki ratio,1 ± 1
[64Cu+2].c1ccc(CNCc2ccc(CN3CCCN4CCNCCCN(CC4)CC3)cc2)nc1,CXCR4,,"NOD/SCID mouse, U87 and U87-stb-CXCR4 xenografts, pancreas","iv, 90 min, ex vivo",,tissue uptake,1.27 ± 0.28 %ID/g
CN(C)[C@@H]1C(=O)C(C(N)=O)=C(O)[C@@]2(O)C(=O)C3=C(O)c4c(O)cccc4[C@@](C)(O)[C@H]3C[C@@H]12,"T1, RNA aptamer A8G",fluorescence titration,,"pH 7.5, 25 °C, MgCl2 10 mM",,Kd,1.05 nM
CN1C(=O)[C@@H](Cc2ccc(O)cc2)NC(=O)CNC(=O)[C@H](Cc2ccc3ccccc3c2)NC(=O)[C@H](CCCNC(=N)N)NC(=O)[C@H]1CCCNC(=O)c1ccc(CNC(=O)CN2CCN(CC(=O)O)CCN(CC(=O)O)CCN(CC(=O)O)CC2)cc1 [gallium-68 labelled],"C-X-C chemokine receptor type 4 (CXCR4, Homo sapiens, UniProt P61073)",,Daudi,"60 min, with: 0.2 pmol tracer",,maximum cell binding,24.5 ± 1.1%
CCCCCCC(=O)Nc1ccc(OC)nc1C,"Liver carboxylesterase 1 (CES1, Homo sapiens, UniProt P23141)",substrate,,"50 µM, pH 8, 37 °C, enzyme purity 25%",,specific activity,180 pmol/min/µg

# Some of these lines once more:
SMILES,target or system,test,test system,setting,how to read,endpoint,value
[64Cu+2].c1cnc(CNCc2ccc(CN3CCCN4CCNCCCN(CC4)CC3)cc2)nc1,"C-X-C chemokine receptor type 4 (CXCR4, Homo sapiens, UniProt P61073)",,"NOD/SCID mice, U87 xenografts, U87-stb-CXCR4 tumour",240 min post-injection,,tissue uptake,23.1 ± 1.34 %ID/g
[64Cu+2].c1ccc(CNCc2ccc(CN3CCCN4CCNCCCN(CC4)CC3)cc2)nc1,CXCR4,,"NOD/SCID mouse, U87 and U87-stb-CXCR4 xenografts, pancreas","iv, 90 min, ex vivo",,tissue uptake,1.27 ± 0.28 %ID/g
CC(=O)NCCN(CC(=O)NCCN(CC(=O)NCCN(CC(=O)NCCC(N)=O)C(=O)C[C@@H](N)Cc1ccccc1)C(=O)C[C@@H](N)CCCNC(=N)N)C(=O)C[C@@H](N)Cc1ccccc1,HIV-1 TAR RNA,,,extrapolated to 1 M KCl,,non-electrostatic ΔG°,-8.174 ± 0.0717 kcal/mol
